# Results pooled from the literature.
# Each numbered part is a random draw from the data of one study; scales do not carry over between parts. Several values in a cell are separate wells, animals, samples, runs or records.
# UniProt Q9NRA0, sequence (whole entry, looked up): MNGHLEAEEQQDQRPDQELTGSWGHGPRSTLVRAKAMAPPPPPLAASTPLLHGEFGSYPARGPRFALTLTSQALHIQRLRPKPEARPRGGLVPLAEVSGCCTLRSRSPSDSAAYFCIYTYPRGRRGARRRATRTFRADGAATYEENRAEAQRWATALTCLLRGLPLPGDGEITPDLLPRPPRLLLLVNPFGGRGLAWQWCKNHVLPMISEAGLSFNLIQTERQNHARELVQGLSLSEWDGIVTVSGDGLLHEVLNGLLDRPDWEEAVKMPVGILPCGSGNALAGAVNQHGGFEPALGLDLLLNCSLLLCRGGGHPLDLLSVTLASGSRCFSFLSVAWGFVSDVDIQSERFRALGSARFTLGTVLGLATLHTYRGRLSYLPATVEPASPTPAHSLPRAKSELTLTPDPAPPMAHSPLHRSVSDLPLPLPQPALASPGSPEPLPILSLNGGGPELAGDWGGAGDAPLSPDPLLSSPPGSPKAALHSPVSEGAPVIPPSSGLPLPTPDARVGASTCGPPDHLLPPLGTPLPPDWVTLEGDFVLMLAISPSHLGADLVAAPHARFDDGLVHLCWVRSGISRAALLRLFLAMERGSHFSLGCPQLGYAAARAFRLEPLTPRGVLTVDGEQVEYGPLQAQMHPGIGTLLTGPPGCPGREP
# UniProt Q13237, sequence (whole entry, looked up): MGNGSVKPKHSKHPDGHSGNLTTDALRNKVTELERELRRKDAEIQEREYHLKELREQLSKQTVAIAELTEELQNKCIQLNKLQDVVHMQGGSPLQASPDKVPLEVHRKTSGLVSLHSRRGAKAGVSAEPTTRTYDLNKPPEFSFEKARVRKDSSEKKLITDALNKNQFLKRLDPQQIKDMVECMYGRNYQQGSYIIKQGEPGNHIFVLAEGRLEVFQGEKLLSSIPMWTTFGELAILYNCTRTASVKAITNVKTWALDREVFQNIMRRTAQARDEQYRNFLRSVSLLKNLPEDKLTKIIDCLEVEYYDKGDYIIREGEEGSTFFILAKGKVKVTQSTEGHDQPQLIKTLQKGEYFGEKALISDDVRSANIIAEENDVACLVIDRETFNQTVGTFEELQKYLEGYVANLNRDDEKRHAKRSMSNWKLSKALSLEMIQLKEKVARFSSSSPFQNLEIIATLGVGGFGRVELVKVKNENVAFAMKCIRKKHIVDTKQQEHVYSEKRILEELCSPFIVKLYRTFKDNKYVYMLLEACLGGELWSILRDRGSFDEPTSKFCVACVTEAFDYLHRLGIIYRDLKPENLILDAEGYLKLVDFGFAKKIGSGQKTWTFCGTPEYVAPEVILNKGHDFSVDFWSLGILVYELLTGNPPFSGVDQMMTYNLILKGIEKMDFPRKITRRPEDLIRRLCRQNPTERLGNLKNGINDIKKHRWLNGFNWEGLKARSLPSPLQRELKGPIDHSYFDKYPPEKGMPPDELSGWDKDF
# UniProt Q13153, sequence (whole entry, looked up): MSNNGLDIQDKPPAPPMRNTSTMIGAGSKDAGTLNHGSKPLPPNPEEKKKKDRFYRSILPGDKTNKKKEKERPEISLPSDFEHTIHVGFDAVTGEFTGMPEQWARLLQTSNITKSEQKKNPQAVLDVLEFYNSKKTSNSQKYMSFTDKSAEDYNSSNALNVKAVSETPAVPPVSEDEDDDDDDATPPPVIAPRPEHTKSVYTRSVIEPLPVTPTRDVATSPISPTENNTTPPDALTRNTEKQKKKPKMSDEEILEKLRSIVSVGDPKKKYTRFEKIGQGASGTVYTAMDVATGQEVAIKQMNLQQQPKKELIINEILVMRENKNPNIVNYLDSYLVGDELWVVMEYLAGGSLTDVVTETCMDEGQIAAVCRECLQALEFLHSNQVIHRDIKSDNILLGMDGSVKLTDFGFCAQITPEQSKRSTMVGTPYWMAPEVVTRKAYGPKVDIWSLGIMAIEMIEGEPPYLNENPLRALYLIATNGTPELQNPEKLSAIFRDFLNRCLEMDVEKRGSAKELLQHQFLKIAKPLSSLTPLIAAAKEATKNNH
# UniProt P06213, sequence (whole entry, looked up): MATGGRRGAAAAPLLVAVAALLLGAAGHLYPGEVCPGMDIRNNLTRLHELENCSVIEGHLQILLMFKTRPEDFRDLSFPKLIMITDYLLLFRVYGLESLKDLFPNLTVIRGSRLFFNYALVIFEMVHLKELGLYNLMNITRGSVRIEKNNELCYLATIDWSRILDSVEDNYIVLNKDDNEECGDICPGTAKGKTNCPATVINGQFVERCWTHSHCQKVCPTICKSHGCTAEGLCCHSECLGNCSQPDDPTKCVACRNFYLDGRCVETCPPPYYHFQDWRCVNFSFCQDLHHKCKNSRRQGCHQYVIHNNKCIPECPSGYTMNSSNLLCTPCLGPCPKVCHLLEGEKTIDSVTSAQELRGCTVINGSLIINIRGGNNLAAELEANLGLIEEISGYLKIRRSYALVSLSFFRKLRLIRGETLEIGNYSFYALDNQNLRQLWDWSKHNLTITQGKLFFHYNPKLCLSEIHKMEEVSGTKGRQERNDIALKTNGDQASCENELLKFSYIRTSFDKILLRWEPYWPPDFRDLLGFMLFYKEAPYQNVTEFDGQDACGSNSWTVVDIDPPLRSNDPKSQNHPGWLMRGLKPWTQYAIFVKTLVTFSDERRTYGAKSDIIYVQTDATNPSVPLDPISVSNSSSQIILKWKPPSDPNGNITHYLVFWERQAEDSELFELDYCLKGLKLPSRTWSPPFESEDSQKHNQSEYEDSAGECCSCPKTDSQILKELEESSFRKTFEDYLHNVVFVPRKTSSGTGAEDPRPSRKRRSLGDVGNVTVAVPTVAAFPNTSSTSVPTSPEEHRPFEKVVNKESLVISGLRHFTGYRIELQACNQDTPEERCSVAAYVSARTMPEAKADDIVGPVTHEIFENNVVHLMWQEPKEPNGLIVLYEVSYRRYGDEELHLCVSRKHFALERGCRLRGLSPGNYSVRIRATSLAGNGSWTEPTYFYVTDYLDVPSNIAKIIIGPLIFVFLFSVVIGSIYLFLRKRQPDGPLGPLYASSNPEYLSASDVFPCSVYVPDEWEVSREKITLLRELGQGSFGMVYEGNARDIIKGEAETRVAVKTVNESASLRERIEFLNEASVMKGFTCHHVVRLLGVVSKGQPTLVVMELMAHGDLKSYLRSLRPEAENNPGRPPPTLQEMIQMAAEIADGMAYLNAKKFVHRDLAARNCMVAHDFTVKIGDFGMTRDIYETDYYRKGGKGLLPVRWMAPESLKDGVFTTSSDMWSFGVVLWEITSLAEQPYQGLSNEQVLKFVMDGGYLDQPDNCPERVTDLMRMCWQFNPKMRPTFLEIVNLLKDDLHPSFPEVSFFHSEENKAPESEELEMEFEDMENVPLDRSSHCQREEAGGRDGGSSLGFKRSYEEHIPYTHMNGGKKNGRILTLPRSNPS
# UniProt Q96RG2, sequence (whole entry, looked up): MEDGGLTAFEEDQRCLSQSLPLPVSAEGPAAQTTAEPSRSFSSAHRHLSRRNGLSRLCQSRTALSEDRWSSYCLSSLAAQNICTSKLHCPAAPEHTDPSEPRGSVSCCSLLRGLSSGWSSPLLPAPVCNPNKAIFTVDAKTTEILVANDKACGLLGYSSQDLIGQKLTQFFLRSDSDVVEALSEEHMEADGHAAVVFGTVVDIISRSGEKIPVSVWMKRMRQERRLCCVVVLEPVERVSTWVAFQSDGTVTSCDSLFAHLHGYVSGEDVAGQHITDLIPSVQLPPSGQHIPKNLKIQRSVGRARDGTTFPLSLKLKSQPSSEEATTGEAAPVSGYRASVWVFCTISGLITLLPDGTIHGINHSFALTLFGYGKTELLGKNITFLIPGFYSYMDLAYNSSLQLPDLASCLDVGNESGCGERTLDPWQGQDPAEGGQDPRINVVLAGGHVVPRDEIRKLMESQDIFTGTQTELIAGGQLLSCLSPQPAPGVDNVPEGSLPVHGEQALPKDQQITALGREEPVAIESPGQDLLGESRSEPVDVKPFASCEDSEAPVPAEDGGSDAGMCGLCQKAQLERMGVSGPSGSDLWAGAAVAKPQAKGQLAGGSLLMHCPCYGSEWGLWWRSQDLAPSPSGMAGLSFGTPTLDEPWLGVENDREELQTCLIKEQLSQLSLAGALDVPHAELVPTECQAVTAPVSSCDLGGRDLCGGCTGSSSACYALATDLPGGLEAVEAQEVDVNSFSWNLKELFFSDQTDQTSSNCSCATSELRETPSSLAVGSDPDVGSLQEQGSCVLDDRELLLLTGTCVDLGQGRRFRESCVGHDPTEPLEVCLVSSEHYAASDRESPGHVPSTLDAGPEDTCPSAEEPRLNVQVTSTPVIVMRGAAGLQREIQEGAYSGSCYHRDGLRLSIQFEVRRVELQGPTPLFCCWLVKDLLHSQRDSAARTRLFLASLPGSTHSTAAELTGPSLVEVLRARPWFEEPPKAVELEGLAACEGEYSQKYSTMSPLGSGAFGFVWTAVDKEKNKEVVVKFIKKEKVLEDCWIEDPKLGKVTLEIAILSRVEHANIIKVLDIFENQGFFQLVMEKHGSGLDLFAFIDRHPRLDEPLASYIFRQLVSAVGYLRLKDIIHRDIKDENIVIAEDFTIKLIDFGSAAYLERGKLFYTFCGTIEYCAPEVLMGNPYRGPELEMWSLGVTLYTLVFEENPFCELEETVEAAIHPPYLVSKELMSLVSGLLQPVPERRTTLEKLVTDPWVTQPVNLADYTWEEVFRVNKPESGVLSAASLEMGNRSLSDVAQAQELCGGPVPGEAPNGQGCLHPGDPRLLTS

# Set 1
# SMILES: COc1cc(C(=O)OCCCN2CCCN(CCCOC(=O)c3cc(OC)c(OC)c(OCc4ccc([N+](=O)[O-])cc4)c3)CC2)cc(OC)c1OC
# Species: mice, male and female, formalin pain
# Route: intrathecal
# With: formalin 5%, 20 µL intraplantar
# Reading: higher = more pain
setting,licking and flinching time
"10 nmol, 10-45 min",314 a.u. and 158 a.u. and 245 a.u. and 133 a.u. and 214 a.u. and 184 a.u. and 166 a.u. and 261 a.u.
"10 nmol, 10-15 min after formalin",3.84 a.u. and 12.8 a.u. and 39.3 a.u. and 114 a.u. and 9.93 a.u. and 1.44 a.u. and 1.65 a.u. and 12.2 a.u.
"1 nmol, 10-15 min after formalin",11.4 a.u. and 10.9 a.u. and 16.3 a.u. and 15 a.u. and 9.81 a.u. and 49.2 a.u. and 4.03 a.u. and 11 a.u.
"1 nmol, 25-30 min after formalin",16.1 a.u. and 101 a.u. and 158 a.u. and 14.5 a.u. and 61.9 a.u. and 31.6 a.u. and 19.4 a.u. and 78.5 a.u.
"10 nmol, 40-45 min after formalin",0.51 a.u. and 14.8 a.u. and 2.47 a.u. and 7.24 a.u. and 16.4 a.u. and 18.7 a.u. and 1.41 a.u. and 1.29 a.u.
"100 nmol, 0-5 min after formalin",144 a.u. and 176 a.u. and 153 a.u. and 148 a.u. and 184 a.u. and 192 a.u. and 146 a.u.
"100 nmol, 35-40 min after formalin",53 a.u. and 0.33 a.u. and 1.98 a.u. and 0.7 a.u. and 76.8 a.u. and 13.4 a.u. and 15.7 a.u. and 55.9 a.u.
"1 nmol, 0-5 min after formalin",193 a.u. and 134 a.u. and 200 a.u. and 160 a.u. and 184 a.u. and 174 a.u. and 159 a.u. and 187 a.u.

# Set 2
# Compound: CNc1ncc2cc(-c3cc(OC)cc(OC)c3Cl)c(=O)n(CCc3ccc(NC(=O)C(C#N)=CC(C)(C)N4CCOCC4)cc3)c2n1
target,assay,setting,inhibition
"Insulin receptor (INSR, Homo sapiens, UniProt P06213)",kinase activity,0.1 µM,5%
NDRG1,,"1 µM, mean",-5%
"Serine/threonine-protein kinase Sgk3 (SGK3, Homo sapiens, UniProt Q96BR1)",kinase activity,1 µM,1%
"PAS domain-containing serine/threonine-protein kinase (PASK, Homo sapiens, UniProt Q96RG2)",kinase activity,1 µM,4%
"Sphingosine kinase 2 (SPHK2, Homo sapiens, UniProt Q9NRA0)",kinase activity,1 µM,-1%
"cAMP-dependent protein kinase catalytic subunit beta (PRKACB, Homo sapiens, UniProt P22694)",kinase activity,0.1 µM,1%
"cGMP-dependent protein kinase 2 (PRKG2, Homo sapiens, UniProt Q13237)",kinase activity,0.1 µM,0%
"Serine/threonine-protein kinase PAK 1 (PAK1, Homo sapiens, UniProt Q13153)",kinase activity,1 µM,-10%

# Further values, each from its own experiment
SMILES,cell line,setting,quantity,result
CN(C)CC#Cc1ccc(OCCCc2sc(N3CCc4cccc(C(=O)Nc5nc6ccccc6s5)c4C3)nc2C(=O)O)c(F)c1,colorectal cancer organoid sample I,4 days,IC50,110 nM
Cn1cc(-c2cccc(CN3CCC4(CC3)COc3c4ccc4c3CN([C@H]3CCC(=O)NC3=O)C4=O)c2)cn1,human Treg:Teff co-culture,"concentration not given, Treg suppression",proliferating CD8+ Teff cells,59.7% and 60.9% and 85.4% and 90.3% and 69.1% and 92.3% and 82% and 37.8%

# Repeated from above (further values, each from its own experiment):
SMILES,cell line,setting,quantity,result
CN(C)CC#Cc1ccc(OCCCc2sc(N3CCc4cccc(C(=O)Nc5nc6ccccc6s5)c4C3)nc2C(=O)O)c(F)c1,colorectal cancer organoid sample I,4 days,IC50,110 nM
Cn1cc(-c2cccc(CN3CCC4(CC3)COc3c4ccc4c3CN([C@H]3CCC(=O)NC3=O)C4=O)c2)cn1,human Treg:Teff co-culture,"concentration not given, Treg suppression",proliferating CD8+ Teff cells,59.7% and 60.9% and 85.4% and 90.3% and 69.1% and 92.3% and 82% and 37.8%
